Results collected from several papers.
Numbered parts are unrelated; each lists some results of a single study.
Sequence of UniProt P11802 (whole entry, looked up): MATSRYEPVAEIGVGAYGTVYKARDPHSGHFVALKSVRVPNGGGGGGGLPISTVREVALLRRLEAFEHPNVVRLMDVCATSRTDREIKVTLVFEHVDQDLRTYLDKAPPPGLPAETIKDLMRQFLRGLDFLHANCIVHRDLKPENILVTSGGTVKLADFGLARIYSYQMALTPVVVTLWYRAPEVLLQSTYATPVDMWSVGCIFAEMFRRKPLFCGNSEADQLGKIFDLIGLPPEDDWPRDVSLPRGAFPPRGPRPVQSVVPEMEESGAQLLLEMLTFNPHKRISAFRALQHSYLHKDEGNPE
Sequence of UniProt Q13043 (whole entry, looked up): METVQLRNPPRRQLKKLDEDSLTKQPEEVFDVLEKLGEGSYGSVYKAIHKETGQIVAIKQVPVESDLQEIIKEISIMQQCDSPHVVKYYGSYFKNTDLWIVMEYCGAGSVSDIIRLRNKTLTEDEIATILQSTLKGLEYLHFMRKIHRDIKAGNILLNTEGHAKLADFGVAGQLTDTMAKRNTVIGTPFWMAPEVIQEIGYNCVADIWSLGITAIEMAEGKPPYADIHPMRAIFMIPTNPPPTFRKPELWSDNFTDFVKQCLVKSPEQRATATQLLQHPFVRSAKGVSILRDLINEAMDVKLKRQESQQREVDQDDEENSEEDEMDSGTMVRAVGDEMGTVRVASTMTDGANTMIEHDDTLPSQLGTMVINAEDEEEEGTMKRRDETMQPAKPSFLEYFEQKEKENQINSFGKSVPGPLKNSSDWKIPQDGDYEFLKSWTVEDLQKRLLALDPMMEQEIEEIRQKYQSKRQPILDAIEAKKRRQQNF
Sequence of UniProt P50750 (whole entry, looked up): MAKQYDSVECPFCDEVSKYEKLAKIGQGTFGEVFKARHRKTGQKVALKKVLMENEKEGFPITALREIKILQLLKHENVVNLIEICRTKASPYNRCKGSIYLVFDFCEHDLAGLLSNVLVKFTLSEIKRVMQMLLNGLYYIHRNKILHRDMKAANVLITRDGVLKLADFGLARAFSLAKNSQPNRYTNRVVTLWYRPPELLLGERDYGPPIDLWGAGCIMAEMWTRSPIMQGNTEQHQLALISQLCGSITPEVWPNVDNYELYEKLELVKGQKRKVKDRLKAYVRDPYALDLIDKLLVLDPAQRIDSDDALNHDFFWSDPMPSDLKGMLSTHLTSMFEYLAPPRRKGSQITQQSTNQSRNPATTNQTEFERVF
Sequence of UniProt Q8TDX7 (whole entry, looked up): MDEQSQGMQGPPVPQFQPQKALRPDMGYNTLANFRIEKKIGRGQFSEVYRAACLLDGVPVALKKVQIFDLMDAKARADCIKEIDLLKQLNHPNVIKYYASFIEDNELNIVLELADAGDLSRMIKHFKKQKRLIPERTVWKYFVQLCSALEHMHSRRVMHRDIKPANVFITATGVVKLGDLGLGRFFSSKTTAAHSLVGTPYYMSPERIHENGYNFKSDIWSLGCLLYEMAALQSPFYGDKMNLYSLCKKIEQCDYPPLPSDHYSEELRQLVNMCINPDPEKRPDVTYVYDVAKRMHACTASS
Sequence of UniProt Q16659 (whole entry, looked up): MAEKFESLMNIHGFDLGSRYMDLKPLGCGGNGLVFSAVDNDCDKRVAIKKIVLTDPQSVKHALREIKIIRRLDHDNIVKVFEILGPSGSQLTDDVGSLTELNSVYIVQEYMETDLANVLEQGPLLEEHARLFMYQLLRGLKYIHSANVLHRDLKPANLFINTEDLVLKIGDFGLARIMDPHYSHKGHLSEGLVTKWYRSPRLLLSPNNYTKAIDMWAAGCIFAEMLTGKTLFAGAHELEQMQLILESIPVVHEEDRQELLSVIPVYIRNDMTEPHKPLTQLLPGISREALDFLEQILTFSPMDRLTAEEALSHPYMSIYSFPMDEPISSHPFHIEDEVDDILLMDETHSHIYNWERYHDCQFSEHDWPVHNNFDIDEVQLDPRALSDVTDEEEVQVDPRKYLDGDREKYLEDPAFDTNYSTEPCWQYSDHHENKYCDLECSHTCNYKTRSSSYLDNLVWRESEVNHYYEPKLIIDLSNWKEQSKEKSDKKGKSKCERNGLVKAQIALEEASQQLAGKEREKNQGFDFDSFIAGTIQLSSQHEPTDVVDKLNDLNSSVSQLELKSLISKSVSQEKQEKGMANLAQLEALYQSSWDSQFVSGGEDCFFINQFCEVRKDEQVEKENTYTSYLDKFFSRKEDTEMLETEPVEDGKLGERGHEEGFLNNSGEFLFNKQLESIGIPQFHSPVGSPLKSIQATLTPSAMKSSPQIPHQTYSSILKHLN
Sequence of UniProt P00519 (whole entry, looked up): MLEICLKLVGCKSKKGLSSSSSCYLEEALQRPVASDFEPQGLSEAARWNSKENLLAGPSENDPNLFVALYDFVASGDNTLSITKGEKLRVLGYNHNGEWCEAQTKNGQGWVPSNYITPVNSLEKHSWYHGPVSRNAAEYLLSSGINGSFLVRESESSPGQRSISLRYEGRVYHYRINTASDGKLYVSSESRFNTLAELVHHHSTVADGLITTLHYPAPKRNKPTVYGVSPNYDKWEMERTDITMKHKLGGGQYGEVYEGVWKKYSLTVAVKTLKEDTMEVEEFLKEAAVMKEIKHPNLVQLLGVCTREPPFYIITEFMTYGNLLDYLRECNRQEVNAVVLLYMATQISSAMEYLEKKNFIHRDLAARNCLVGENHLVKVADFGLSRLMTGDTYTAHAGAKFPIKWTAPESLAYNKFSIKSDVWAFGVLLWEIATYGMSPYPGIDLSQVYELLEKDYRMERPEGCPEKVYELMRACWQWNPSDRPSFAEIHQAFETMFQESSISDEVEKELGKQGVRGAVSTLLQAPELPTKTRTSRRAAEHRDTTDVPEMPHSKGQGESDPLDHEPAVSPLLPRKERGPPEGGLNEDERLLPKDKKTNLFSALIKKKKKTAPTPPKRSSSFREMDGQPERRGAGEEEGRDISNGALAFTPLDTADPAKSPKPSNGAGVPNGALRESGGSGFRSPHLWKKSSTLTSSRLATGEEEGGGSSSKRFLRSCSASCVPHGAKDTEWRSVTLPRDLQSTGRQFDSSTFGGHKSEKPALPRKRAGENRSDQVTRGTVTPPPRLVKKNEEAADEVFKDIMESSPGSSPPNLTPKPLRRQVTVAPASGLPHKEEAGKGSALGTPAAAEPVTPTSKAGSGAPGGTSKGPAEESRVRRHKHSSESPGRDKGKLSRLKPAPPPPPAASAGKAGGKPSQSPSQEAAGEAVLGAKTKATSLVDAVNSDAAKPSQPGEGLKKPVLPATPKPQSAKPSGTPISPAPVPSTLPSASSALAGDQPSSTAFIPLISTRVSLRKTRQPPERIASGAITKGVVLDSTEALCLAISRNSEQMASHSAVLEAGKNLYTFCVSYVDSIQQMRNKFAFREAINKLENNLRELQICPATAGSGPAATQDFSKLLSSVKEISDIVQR
Sequence of UniProt P54760 (whole entry, looked up): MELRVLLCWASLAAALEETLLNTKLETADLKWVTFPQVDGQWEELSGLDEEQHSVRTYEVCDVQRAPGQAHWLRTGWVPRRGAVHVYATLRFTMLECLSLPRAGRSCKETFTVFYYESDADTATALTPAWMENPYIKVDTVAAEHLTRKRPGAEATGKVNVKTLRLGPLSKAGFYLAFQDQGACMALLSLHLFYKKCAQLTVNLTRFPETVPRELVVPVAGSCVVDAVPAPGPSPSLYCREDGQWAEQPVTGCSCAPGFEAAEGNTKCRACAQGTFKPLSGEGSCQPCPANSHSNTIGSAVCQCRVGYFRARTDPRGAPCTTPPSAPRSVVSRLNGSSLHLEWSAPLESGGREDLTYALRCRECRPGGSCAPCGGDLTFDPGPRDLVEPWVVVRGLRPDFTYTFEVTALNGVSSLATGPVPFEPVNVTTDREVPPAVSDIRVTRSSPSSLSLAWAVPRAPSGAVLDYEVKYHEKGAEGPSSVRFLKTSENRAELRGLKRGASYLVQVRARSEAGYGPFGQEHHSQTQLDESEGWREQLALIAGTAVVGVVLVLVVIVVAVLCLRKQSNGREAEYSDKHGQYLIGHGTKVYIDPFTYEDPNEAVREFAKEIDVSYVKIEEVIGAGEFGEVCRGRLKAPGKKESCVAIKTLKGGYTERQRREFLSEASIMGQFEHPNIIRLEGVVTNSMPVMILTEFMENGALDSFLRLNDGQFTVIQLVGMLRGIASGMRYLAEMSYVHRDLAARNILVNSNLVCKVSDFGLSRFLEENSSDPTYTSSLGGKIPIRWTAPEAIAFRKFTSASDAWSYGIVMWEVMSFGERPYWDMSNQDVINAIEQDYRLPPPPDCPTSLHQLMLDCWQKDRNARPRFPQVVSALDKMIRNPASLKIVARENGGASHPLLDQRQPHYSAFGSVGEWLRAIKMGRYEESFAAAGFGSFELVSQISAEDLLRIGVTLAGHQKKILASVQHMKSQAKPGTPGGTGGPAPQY

Sample 1
Target: Calcium/calmodulin-dependent protein kinase type II subunit alpha (CAMK2A, Homo sapiens, UniProt Q9UQM7)
Sequence of UniProt Q9UQM7 (whole entry, looked up): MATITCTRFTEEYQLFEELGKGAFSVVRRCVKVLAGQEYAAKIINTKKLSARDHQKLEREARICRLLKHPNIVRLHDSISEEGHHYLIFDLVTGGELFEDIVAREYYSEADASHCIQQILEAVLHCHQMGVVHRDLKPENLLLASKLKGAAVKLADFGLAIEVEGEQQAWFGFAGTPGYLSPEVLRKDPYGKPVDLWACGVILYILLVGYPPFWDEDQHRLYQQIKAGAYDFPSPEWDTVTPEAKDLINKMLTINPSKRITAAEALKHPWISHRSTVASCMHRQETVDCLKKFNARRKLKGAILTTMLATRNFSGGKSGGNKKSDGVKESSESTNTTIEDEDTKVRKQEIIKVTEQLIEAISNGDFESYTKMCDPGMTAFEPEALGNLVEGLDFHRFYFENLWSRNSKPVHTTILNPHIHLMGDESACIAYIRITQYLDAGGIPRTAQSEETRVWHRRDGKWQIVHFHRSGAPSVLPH
Read-out: enzyme activity
Action: inhibitor
Tested at: 10 µM
SMILES | inhibition [%]
CN1CCOC(c2ccccc2)c2ccccc2C1 (centres unmarked) | 8
O=c1c(O[C@@H]2O[C@H](CO)[C@@H](O)[C@H](O)[C@H]2O[C@@H]2O[C@H](CO)[C@@H](O)[C@H](O)[C@H]2O)c(-c2ccc(O)cc2)oc2cc(O)cc(O)c12 | -32
CC(C)(C)NC(=O)[C@H]1CC[C@H]2[C@@H]3CC[C@H]4NC(=O)C=C[C@]4(C)[C@H]3CC[C@]12C | -2
Nc1cc(C(=O)O)ccc1O | -23
OC[C@@H](O)C(O)[C@H](O)CO | 36
CC(=O)O[C@]1(C(C)=O)CC[C@H]2[C@@H]3C=C(C)C4=CC(=O)CC[C@]4(C)[C@H]3CC[C@@]21C | -3
COc1cc(O)c2c(c1)O[C@H](c1ccc(O)cc1)CC2=O | 13
O=C(OC1C[C@H]2CC[C@@H](C1)[N+]21CCCC1)C(O)(c1ccccc1)c1ccccc1 (some centres unmarked) | 2
O=Cc1ccccc1C(=O)O | 2
COc1cc2c(cc1O)CCN[C@]21CS[C@@H]2c3c(OC(C)=O)c(C)c4c(c3[C@H](COC1=O)N1[C@@H]2[C@H]2c3c(cc(C)c(OC)c3O)C[C@@H]([C@@H]1C#N)N2C)OCO4 | -4
CCCCC/C=C\C/C=C\C/C=C\C/C=C\CCCC(=O)O | -3
CCS(=O)(=O)CCn1c([N+](=O)[O-])cnc1C | -2
Cc1c[nH]c(=O)[nH]c1=O | -18
COC(=O)N[C@H](C(=O)N1CCC[C@H]1c1ncc(-c2ccc3c(c2)O[C@@H](c2ccccc2)n2c-3cc3cc(-c4cnc([C@@H]5CCCN5C(=O)[C@@H](NC(=O)OC)C(C)C)[nH]4)ccc32)[nH]1)C(C)C | -6
COc1cc2c(cc1OC)[C@H]1CC(=O)[C@H](CC(C)C)CN1CC2 | -0.07
CO/N=C1\CN(c2nc3c(cc2F)c(=O)c(C(=O)O)cn3C2CC2)CC1CN (centres unmarked) | -16
CCCN1CC(c2ccc(S(C)(=O)=O)cc2)=C(c2ccc(C)cc2)C1=O | 0
CC(C)C(O)C(=O)O (centres unmarked) | -16
Nc1nc2c(ncn2[C@@H]2O[C@H](COP(=O)(O)OP(=O)(O)O[C@H]3O[C@H](CO)[C@@H](O)[C@H](O)[C@@H]3O)[C@@H](O)[C@H]2O)c(=O)[nH]1 | -20
COc1ccc(-c2cc(=O)c3c(OC)c(OC)c(OC)cc3o2)cc1OC | -16
C[C@H]1[C@H](C)CC[C@]2(C(=O)O)CC[C@]3(C)C(=CC[C@@H]4[C@@]5(C)CCC(=O)C(C)(C)[C@@H]5CC[C@]43C)[C@H]12 | 1
COc1ccc(-c2cc(=O)c3c(O)c(OC)c(OC)cc3o2)cc1 | -35

Sample 2
Structure (SMILES): O=C(NCc1ncc(C(F)(F)F)cc1Cl)c1ccc2c(c1)C1(CCS(=O)(=O)CC1)[C@@H](C1CC1)N2S(=O)(=O)c1ccc(F)cc1
Read-out: cell-free assay
Technique: competition with immobilised ligand
Tested at: 1 µM
target | remaining binding [%]
PIK3CA (Homo sapiens, UniProt P42336, C420R) | 77
EPHB4 (Homo sapiens, UniProt P54760) | 94
MAPK6 (Homo sapiens, UniProt Q16659) | 86
DCLK1 (Homo sapiens, UniProt O15075) | 74
FYN (Homo sapiens, UniProt P06241) | 70
NEK7 (Homo sapiens, UniProt Q8TDX7) | 65
Cyclin-dependent kinase 4, with cyclin D1 (CDK4, Homo sapiens, UniProt P11802) | 80
CAMK1 (Homo sapiens, UniProt Q14012) | 97
STK4 (Homo sapiens, UniProt Q13043) | 86
Tyrosine-protein kinase ABL1, phosphorylated (ABL1, Homo sapiens, UniProt P00519) | 86
DYRK1A (Homo sapiens, UniProt Q13627) | 85
CDK9 (Homo sapiens, UniProt P50750) | 100
LRRK2 (Homo sapiens, UniProt Q5S007) | 98
TNK1 (Homo sapiens, UniProt Q13470) | 88
Receptor-type tyrosine-protein kinase FLT3, autoinhibited (FLT3, Homo sapiens, UniProt P36888) | 94

Sample 3
Target: Calcium/calmodulin-dependent protein kinase type II subunit alpha (CAMK2A, Homo sapiens, UniProt Q9UQM7)
Read-out: enzyme activity
Action: inhibitor
Tested at: 0.5 µM
Reference: control
Structure (SMILES) | remaining activity [%]
CC(C)[C@H](CO)Nc1nc(Nc2cccc(Cl)c2)c2ncn(C(C)C)c2n1 | 101
COc1cc2ncc(-c3ccccc3)nc2cc1OC | 99.5
Cc1nc(Nc2ncc(C(=O)Nc3c(C)cccc3Cl)s2)cc(N2CCN(CCO)CC2)n1 | 103
CC(=O)O/N=C1/C(c2c(O)[nH]c3cc(Br)ccc23)=Nc2ccccc21 | 89.2
Nc1[nH]nc2nnc(-c3c(-c4ccccc4)nn4ccccc34)cc12 | 102
Cn1cc(/C=C2\C(=O)Nc3ccc(S(N)(=O)=O)cc32)c2ccccc21 | 57.6
CCN1/C(=C/C(C)=O)Sc2ccc(OC)cc21 | 103
CCOc1cc2ncnc(Nc3cccc(Br)c3)c2cc1OCC | 103
COc1ccc(-c2cnc3c(-c4ccsc4)cnn3c2)cc1 | 96.6
O=C1NC(=O)/C(=C/c2ccc3nccnc3c2)S1 | 92.3
O=C(Nc1ccc(Cl)cc1)c1ccccc1NCc1ccncc1 | 99.9
O=c1cc(N2CCOCC2)oc2c1ccc1ccccc12 | 99.4
COc1cc2ncnc(N3CCN(C(=O)Nc4ccc(Oc5ccccc5)cc4)CC3)c2cc1OC | 89.9
CC(C)c1nn(-c2c(Cl)cccc2Cl)c2nc(Cc3ccc(OCCO)cc3)[nH]c(=O)c12 | 106
COc1ccc(Cl)cc1NC(=O)Nc1cc(C)nc2ccccc12 | 101
CCC(=O)Nc1ccc2ncnc(Nc3cccc(Br)c3)c2c1 | 85.7
CN(C)CCCn1cc(C2=C(c3c[nH]c4ccccc34)C(=O)NC2=O)c2ccccc21 | 35.2
COc1cc2ncnc(Nc3ccc(OCc4ccccc4)cc3)c2cc1OC | 107
Cn1cnc2cc3c(Nc4cccc(Br)c4)ncnc3cc21 | 102

Sample 4
SMILES: CC(C)n1cnc(-c2ccc(F)cc2)c1-c1ncc(C(=O)Nc2ccc(N3CCN(C)CC3)cc2)[nH]1
Technique: phase 2a trial
Host: idiopathic pulmonary fibrosis patients
conditions | patients with eczema [%]
30 mg once daily, grade 1 emergent event | 0
30 mg once daily, grade 4 emergent event | 0
60 mg once daily, grade 4 emergent event | 0
30 mg once daily, grade 3 emergent event | 0
30 mg once daily, grade 2 emergent event | 0
30 mg once daily, grade 5 emergent event | 0
all arms pooled, grade 5 emergent event | 0
60 mg once daily, grade 2 emergent event | 0
60 mg once daily, grade 3 emergent event | 0

Repeated from above (sample 4):
conditions | patients with eczema [%]
30 mg once daily, grade 2 emergent event | 0
30 mg once daily, grade 5 emergent event | 0
all arms pooled, grade 5 emergent event | 0
60 mg once daily, grade 2 emergent event | 0
